Measurements collected from several papers.
Parts stem from different laboratories: compare values within a part only.

Block 1
Target: Ras GTPase-activating protein-binding protein 1, full length (G3BP1, Homo sapiens, UniProt Q13283)
Sequence of UniProt Q13283 (whole entry, looked up): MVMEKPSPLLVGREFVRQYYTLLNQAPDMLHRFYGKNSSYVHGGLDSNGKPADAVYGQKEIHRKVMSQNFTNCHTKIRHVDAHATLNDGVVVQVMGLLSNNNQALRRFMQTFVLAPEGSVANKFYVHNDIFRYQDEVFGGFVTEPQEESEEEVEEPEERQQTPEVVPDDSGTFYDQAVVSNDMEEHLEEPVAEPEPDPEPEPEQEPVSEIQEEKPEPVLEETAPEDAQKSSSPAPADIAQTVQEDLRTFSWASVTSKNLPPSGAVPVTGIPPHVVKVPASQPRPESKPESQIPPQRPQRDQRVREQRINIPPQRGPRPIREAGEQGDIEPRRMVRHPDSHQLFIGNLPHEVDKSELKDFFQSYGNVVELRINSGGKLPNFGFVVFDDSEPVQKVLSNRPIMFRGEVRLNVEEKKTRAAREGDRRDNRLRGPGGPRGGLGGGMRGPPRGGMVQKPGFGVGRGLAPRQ
Technique: RNA Bind-n-Seq
Form: RNA
Medium: in vitro
Tested at: 200 nM
Setting: whole 134-nt RNA, ends assumed
Added: 150 mM LiCl
Baseline: input library
Direction: higher = stronger binding
Endpoint: log2 enrichment
Each molecule: 7-deaza-guanosine replaces G
Constant ends, left off below: GGGAGUUCUACAGUCCGACGAUC … UGGAAUUCUCGGGUGUCAAGG
UCCUCAAGUCCUGUGCUACACAUCGUAUGUACCGAAUCGGUUUGGUGGAGGAAAGUAUUAUGUUACGCCGUUCGGAUCUGCACUUCCAGC: -0.662
CUGUGCUACACAUCGUAUGUACCGAAUCGGGGUUUGGGGAAAAAAAGGGGUUUUUUUGGGGAAAGUAUUAUGUUACGCCGUUCGGAUCUG: 0.185
UCAAGUCCUGUGCUACACAUCGUAUGUACCGAAUCGGUGGUUUUUUUGGAAAGGAAAGUAUUAUGUUACGCCGUUCGGAUCUGCACUUCC: -0.178
ACCAUGCAGGUGGGCAUCUUUGGGAAGUGGGGCAAGGGGGGGAUUGGGAGGGGGGUAACACUUUGGGAACAGGUGGUCCCAGGUCGUUUC: 0.136
CUGUGCUACACAUCGUAUGUACCGAAUCGGGGUUUUUUUGGGGUUUUUUUGGUUUUUUUGGAAAGUAUUAUGUUACGCCGUUCGGAUCUG: 1.31
AGUCCUGUGCUACACAUCGUAUGUACCGAAUCGGGCCCCCGGGCCCCCGGGCCCCCGGAAAGUAUUAUGUUACGCCGUUCGGAUCUGCAC: -1.55
UCCUCAAGUCCUGUGCUACACAUCGUAUGUACCGAAUCGGGGAGGAGGGAGGAAAGUAUUAUGUUACGCCGUUCGGAUCUGCACUUCCAG: 0.15
UGGGAGGUGGAUUUUGUUUAUUUUUUUAGCUCAUUUCCAGGGGUGAGAAUUUUUUUUUAAUAUGUGUCAUGAAUAAAGUUGUUUUUGAAA: 0.0912
UGGCCCUGGUGGCAUGCGGGGAGGAAGAGGUGGCCUCAUGGAUCGUGGUGGUUCCGGUGGAAUGUUCAGAGGUGGCCGUGGUGGAGACAG: 0.497
AAGUCCUGUGCUACACAUCGUAUGUACCGAAUCGGGAGGGAAAAAAAGGGAAAGGGAAAGUAUUAUGUUACGCCGUUCGGAUCUGCACUU: 0.151
UGGGAGGUGGAUUUUGUUUAUUUUUUUAGCUCAUUUCCAGGGGUGGGAAUUUUUUUUUAAUAUGCGUCAUGAAUAAAGUUGUUUUUGAAA: -0.266

Block 2
Target: Phosphate system positive regulatory protein PHO4, full length, GST-tagged (PHO4, Saccharomyces cerevisiae, UniProt P07270, residues 1-312)
Sequence of UniProt P07270 (whole entry, looked up): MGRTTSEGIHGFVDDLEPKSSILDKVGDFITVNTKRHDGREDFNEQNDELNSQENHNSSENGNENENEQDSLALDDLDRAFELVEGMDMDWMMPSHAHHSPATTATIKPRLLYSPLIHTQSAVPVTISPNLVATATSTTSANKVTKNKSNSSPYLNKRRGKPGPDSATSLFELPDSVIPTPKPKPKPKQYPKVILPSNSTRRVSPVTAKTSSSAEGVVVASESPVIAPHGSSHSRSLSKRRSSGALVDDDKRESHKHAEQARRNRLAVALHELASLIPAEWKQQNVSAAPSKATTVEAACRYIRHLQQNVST
Technique: competition protein-binding microarray
Form: double-stranded DNA, one strand shown
Medium: in vitro
Tested at: 2 µM
Setting: whole 60-bp probe, lowest competitor level
Added: Cbf1 competitor, 0.05 µM
Direction: higher = stronger binding
Endpoint: fluorescence intensity
Constant ends, left off below: … GTCTTGATTCGCTTGACGCTGCTG
GTCTTGTCTCATTTTCACGTGGTCTTCCCCACTTCA: 14500 a.u.
GTCTTGTCTCATTGATTCGTGGGTGTCCCCACTTCA: 5990 a.u.
CTTTCCCGATCTTGTTAAGTGGGTGTAGCACATTTG: 4600 a.u.
AAAGCGGTAATTTGTCACGTGGGTGCAGATATCTAT: 19300 a.u.
TGCAGGGAGAGGTGGCACGAGGCCGAGAGACGGGAG: 11800 a.u.
TTAACTGCCCAAGGACACATGCCCTGGGCTGGAACC: 7810 a.u.
CGTCCTAGTGATTGCATGGTGGGTGCCATGAGGAAG: 7530 a.u.
CTTGAAACTCCTCCACGCGTGCTTTTTCTTGTTCAG: 12100 a.u.
AAATTACTAAGTTGTCACTTCACTTACCCCGTATGA: 3430 a.u.
TATTGCAGCTGGTCCCACGTGGGTAAGCGGTTGGCG: 20800 a.u.
TGCGCAACAACTTTTCACGTGGGGTTATGTCTAGAA: 15400 a.u.
CTTTCCCGATCTTTGCACGTGTTTTTAGCACATTTG: 15500 a.u.
CGGGGTTAAGTTTTTCACGTGTATTGCTTGCAGCAG: 12300 a.u.
TCATATTTGACGAGTCACGTTTCTTACAATGTCTAC: 11700 a.u.
TGGCGTTCGACGACTCATGTGTGTTAGATTGGGACA: 7120 a.u.
CAAGTGGTGGTGATACACGTGAAGTTTTAGAGGAAA: 12900 a.u.
CTTCTGTAAATTTGCCGTGTGGGTGGACGCGCCCCG: 6550 a.u.
AACGGGTTTCGAGATCTCGTGAGGATGGTTTTGGAA: 5180 a.u.
TGTGAGGATTATTGTCATGTGAAGGCGAGATAGGTA: 6110 a.u.
CTAACGAAGGTTTGTCACGCCACTTACAAGCCAAGT: 5510 a.u.
CTTCTGTAAATTTTTCACGTGGCGTGAAGCGCCCCG: 13100 a.u.

Block 3
Target: Interferon regulatory factor 7, full length, phosphomimetic (IRF7, Homo sapiens, UniProt Q92985, residues 1-503, S101K/S471D/S472D/S475D/S476D/S477D/S483D/S484D/S487D)
Sequence of UniProt Q92985 (whole entry, unmodified, looked up): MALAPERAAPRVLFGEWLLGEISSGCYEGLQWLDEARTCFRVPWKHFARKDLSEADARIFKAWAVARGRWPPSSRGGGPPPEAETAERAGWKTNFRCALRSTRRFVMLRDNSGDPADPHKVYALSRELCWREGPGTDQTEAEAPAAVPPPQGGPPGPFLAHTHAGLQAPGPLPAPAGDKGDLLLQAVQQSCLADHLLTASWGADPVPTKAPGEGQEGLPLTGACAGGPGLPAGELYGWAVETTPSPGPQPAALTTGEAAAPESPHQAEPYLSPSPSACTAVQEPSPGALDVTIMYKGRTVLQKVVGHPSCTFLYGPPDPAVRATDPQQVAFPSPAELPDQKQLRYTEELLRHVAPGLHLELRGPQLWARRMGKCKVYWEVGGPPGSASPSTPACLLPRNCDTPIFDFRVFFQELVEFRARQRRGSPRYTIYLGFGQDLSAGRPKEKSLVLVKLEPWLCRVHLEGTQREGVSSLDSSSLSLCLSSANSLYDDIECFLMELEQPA
Technique: protein-binding microarray
Form: double-stranded DNA, one strand shown
Medium: in vitro
Tested at: 250 nM
Setting: 60-bp whole probe
Added: salmon DNA 0.4 mg/ml
Baseline: random background probes
Direction: higher = stronger binding
Endpoint: log fluorescence
Constant ends, left off below: GCCTAGCAC … GTCTTGATTCGCTTGACGCTGCTG
ATAGAACTGGGGACTGGATTAGTGCTA: -0.431 z-score
TATAATATATATTCATATATGTGCTAG: 1.08 z-score
TTAGGACTGGGGACAGGGTTAGTGCTA: -0.4 z-score
TTAGGACTGCTTTTCCTTAAGTGCTAG: 1.3 z-score
GACGGTTTCGGGTTTCGCGACGTGCTA: 10.9 z-score
GACGACTTCGGGTATCGAGACGTGCTA: -0.241 z-score
TTAGATTTCGTGTATCGATTAGTGCTA: 0.953 z-score
GACGGACTGGGTAGCGGGACGTGCTAG: -0.722 z-score
GTCGGACTGGACACTGGGGACGTGCTA: -0.593 z-score
TTAGGTTTCGATTTCGGTTAGTGCTAG: 13.7 z-score
TCGGGTCTCCCTTGAGGTTTGTGCTAG: 0.376 z-score
TTAGGTATCGGTATCTGTTAGTGCTAG: 2 z-score
GGCGGTTCCGGTTTCGGGACGTGCTAG: 6.87 z-score
CTGTTTCCATCTCTCAAAAGGTGCTAG: 7.24 z-score
TTCCCTCCCTAATTCTGATTGTGCTAG: 1.18 z-score
TTAGGTATCGACTATCGGTAAGTGCTA: 0.351 z-score
GACGAACTGAGTCTCTAGACGTGCTAG: -0.393 z-score
GGCGAACTGAGACTGGAGACGTGCTAG: -0.385 z-score
TTAGGTTTCGGATCCGGTTAGTGCTAG: 8.3 z-score
CTTTTTAGAAATTTCTTTCTGTGCTAG: 2.45 z-score
TCAGGTTTCGACTATCGGTTAGTGCTA: 5.65 z-score
AGTCGTGAGCCGCACAGTGGGTGCTAG: -0.964 z-score

Block 4
Target: RNA binding protein fox-1 homolog 2, RRM domain, GST-SBP tag (RBFOX2, Homo sapiens, UniProt O43251-10, residues 100-194)
Technique: RNA Bind-n-Seq
Form: RNA
Medium: in vitro
Tested at: 365 nM
Setting: natural RNA segment, single round, ends assumed
Baseline: no-protein control
Direction: higher = stronger binding
Endpoint: RBNS enrichment (R)
Constant ends, left off below: GGGAGUUCUACAGUCCGACGAUC … UGGAAUUCUCGGGUGCCAA
Target sequence (chain): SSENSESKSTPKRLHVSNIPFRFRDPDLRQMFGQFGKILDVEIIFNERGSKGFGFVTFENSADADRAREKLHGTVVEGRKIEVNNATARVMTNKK
CGGAACUCUCGUGACAUAGGGUCCAACUCUGGCUGCUGCUGAACAUCUGGCUUGAACUUUUUUUGUCCUUCCUGGAAUAGCUUCAGAUCAAUAGGCUUAAUGAAAGAGGU: 0.27
AUCUUCCUCCCCUUUCUCCCUUUCACUCCUUCCCCUGCGGACACAUUCUAGUUCCUGCAGGGCUUAUUUAAAAAGAAGAUGGUCAAGUUUGUAAAAUAUUUGUUCGUGCU: 1.76
AUUCACACAGGCAAGGGUUGACUGGCCAAGCUGGCACCAUGUGCUUGUGCAGCUCUGGAUCUCUGAGCCUCCCCUGACUAACCUUGAGUAGGAACAUGCUGAUGGGACAC: 0.316
UCUCCAUAGAGAAUGGUGCUUUGUCCAAGAAAACGUAUGAGUUUCUGAUUCUCCGGGAGCCGUUCAAUGGUGAGGUUGAUGGGAAGACUUCCUUCCCAAAGAAAAUAGAU: 0.323
GGGUGGUCUCAGAAGGCACGAGGCUUCCUGCCUCUUCCCUCUUCCUCCUUGUAAGAGCUUCAACCCAAGUCCUCCAAUUCACAUUAAGGAAUCCAUACUAAAGGGGGACU: 0.279
UUAGUUGUAACCAGUAGUAUUCACAUUAAAUCUUGCUUUUUUUCCCCUUAAAAAAAGAAAAAAAUUACCAAACAAUAAACUUGGCUAGACCUUGUUUUGAGGAUUUUACA: 0.603
AGUGAUCCCAGGUUUCCUCCUGGCCCGUCCCAUGGUCCCUCCACAGGAGUGUGAGAGGAUGGGGGAAGCACUGUGGGAAGACCACCAAAGAUGGCUGGACAGUGGGAGAG: 0.312
UCAUGCUGUUUUUUUUCUCUGCAACUCGUUAGCAGAGGAAAACAGCAUGUGGGUAUUUGUCGACCAAAAUGAUGCCAAUUUGUAAAUUAAAAUGUCACCUAGUGGCCCUU: 0.311
CAGAAGGGUGCCACAUCAGUCCCCUCCCCAACCUCAGUGACUGACAGAGGAUCCGGAUCUCAGAGCCUGAGACCAGGUUUAUUGGGGCCUGGCCUGUCCUCUAAGUCAAG: 0.217

A few entries again (block 1):
UGGGAGGUGGAUUUUGUUUAUUUUUUUAGCUCAUUUCCAGGGGUGGGAAUUUUUUUUUAAUAUGCGUCAUGAAUAAAGUUGUUUUUGAAA: -0.266
ACCAUGCAGGUGGGCAUCUUUGGGAAGUGGGGCAAGGGGGGGAUUGGGAGGGGGGUAACACUUUGGGAACAGGUGGUCCCAGGUCGUUUC: 0.136
CUGUGCUACACAUCGUAUGUACCGAAUCGGGGUUUGGGGAAAAAAAGGGGUUUUUUUGGGGAAAGUAUUAUGUUACGCCGUUCGGAUCUG: 0.185
UCCUCAAGUCCUGUGCUACACAUCGUAUGUACCGAAUCGGGGAGGAGGGAGGAAAGUAUUAUGUUACGCCGUUCGGAUCUGCACUUCCAG: 0.15
UGGGAGGUGGAUUUUGUUUAUUUUUUUAGCUCAUUUCCAGGGGUGAGAAUUUUUUUUUAAUAUGUGUCAUGAAUAAAGUUGUUUUUGAAA: 0.0912
UCAAGUCCUGUGCUACACAUCGUAUGUACCGAAUCGGUGGUUUUUUUGGAAAGGAAAGUAUUAUGUUACGCCGUUCGGAUCUGCACUUCC: -0.178
